Results from different studies.
A part holds a random share of what one study measured.

Series 1
Target: Centromere-binding protein 1, full length, N-terminal tag (CBF1, Saccharomyces cerevisiae, UniProt P17106, residues 1-351)
Chain of UniProt P17106 (whole entry, looked up): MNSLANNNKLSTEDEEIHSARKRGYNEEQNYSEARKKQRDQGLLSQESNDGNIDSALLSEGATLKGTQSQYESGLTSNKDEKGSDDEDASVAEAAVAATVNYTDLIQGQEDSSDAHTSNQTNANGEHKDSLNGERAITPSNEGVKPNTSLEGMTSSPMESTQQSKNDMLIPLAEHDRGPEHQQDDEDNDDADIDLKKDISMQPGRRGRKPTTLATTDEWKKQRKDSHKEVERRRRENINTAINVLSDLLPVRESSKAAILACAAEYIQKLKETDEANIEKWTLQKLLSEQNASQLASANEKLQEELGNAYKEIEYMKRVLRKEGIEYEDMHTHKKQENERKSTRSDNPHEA
Method: protein-binding microarray
Molecule type: double-stranded DNA, one strand shown
Sample: in vitro
Tested at: 0.8 µM
Setting: whole 60-bp probe, no competitor
Reading: higher = stronger binding
Quantity: fluorescence intensity
All sequences stand within: … GTCTTGATTCGCTTGACGCTGCTG
Oligonucleotide = CTACTCAAAACAGTGCACGTGCACCCATGGCATTTC; result = 12400 a.u.
Oligonucleotide = CTACCTCTTGTTTTCTTCGTGACATTTTTCTCTTTC; result = 588 a.u.
Oligonucleotide = CTAAGCTGTCACGGTCATCACTGCTCCGACACTTTC; result = 667 a.u.
Oligonucleotide = GAATGAAGGCATCGTGACGTGATGATATAGGTGTAG; result = 1370 a.u.
Oligonucleotide = GAAGTGAGATGGCGTGGCGTGGATCTGCAGGCTTAG; result = 524 a.u.
Oligonucleotide = CCTAACTACTATAGTCATGATTAATAGCTTCGTACA; result = 520 a.u.
Oligonucleotide = GAATCGTTTCGTCTCAACGTGGGAACGATCAAATAG; result = 507 a.u.
Oligonucleotide = CTAAAAATTTTTCATTGCGTGGGTACATCCGTGTTC; result = 538 a.u.
Oligonucleotide = GAATACGTGGACTAGCGTGTGACTACAAGTTAATAG; result = 619 a.u.
Oligonucleotide = CTACTATAGACGCCGCACATGCTTTCAAATAGATTC; result = 778 a.u.
Oligonucleotide = GAATAAAAAAGAAAACGCGTGCTATCGCGTAACTAG; result = 564 a.u.
Oligonucleotide = CTAATCCTTTCCTGTCACATGAAGAGAAAAAGGTTC; result = 2550 a.u.
Oligonucleotide = CTATGGTTTCAGTCTGTCATGAGGAATAAGGGCTTC; result = 558 a.u.
Oligonucleotide = GAACTTTTTAAATGTCATCACATGATGTTTCTTTAG; result = 4660 a.u.
Oligonucleotide = GAATTTCAAACTGATCACGTGAAAGGGAGTTAATAG; result = 18100 a.u.
Oligonucleotide = GAAATACTGCGCTATCTCGTGCCCTCGTCTCTTTAG; result = 606 a.u.
Oligonucleotide = GAAAACCCTGTTATTGACATCAGAAAACAACAGTAG; result = 594 a.u.
Oligonucleotide = GAAGGTGCTCCATCCTAGGTGACCGTCGTATGCTAG; result = 486 a.u.
Oligonucleotide = GAACGGTTACAACGTCACGTCTTTTTCTGTTTATAG; result = 683 a.u.
Oligonucleotide = GAAAAAAGTTTTCGCCATCAGACGACTTATATGTAG; result = 530 a.u.
Oligonucleotide = CTAATGTTTCACCGGCACGTTTTGTTTTGTCCCTTC; result = 684 a.u.
Oligonucleotide = GAATTAATGTTGTGTTCAGTTGATTGTTATTATTAG; result = 525 a.u.
Oligonucleotide = CCTAACTACTATAGGCATGCGTAATAGCTTCGTACA; result = 512 a.u.
Oligonucleotide = GAAAAATATAGTGTGATCATCGTCATATATTTTTAG; result = 675 a.u.
Oligonucleotide = GAAGTGAGGTTAACATTGGTGGTGGTCTGACATTAG; result = 628 a.u.

Series 2
Target: Sal-like protein 4, full length isoform B (SALL4, Homo sapiens, UniProt Q9UJQ4-2, residues 1-616)
Method: universal PBM
Molecule type: double-stranded DNA, one strand shown
Sample: in vitro
Tested at: not given
Setting: 8-mer, flanks averaged, mean of replicates
Reading: higher = stronger binding
Quantity: E-score
Oligonucleotide = CCACTGCG; result = -0.202
Oligonucleotide = AAGGCACT; result = -0.201
Oligonucleotide = AGGTGCAG; result = -0.188
Oligonucleotide = AATACCAC; result = 0.154
Oligonucleotide = CTGGCAAG; result = -0.0956
Oligonucleotide = ATCAGAGG; result = 0.0379
Oligonucleotide = AATAAGAC; result = 0.241
Oligonucleotide = ATACGGCA; result = 0.12
Oligonucleotide = ATTCCGGA; result = 0.0956
Oligonucleotide = AATCCCTC; result = -0.0174
Oligonucleotide = ATTTTCTC; result = 0.0986
Oligonucleotide = CCTAGACA; result = -0.11
Oligonucleotide = CATCAACC; result = 0.0685
Oligonucleotide = GTTTAGTA; result = 0.228
Oligonucleotide = CATTTAAA; result = 0.149
Oligonucleotide = GCTATCAA; result = 0.0728
Oligonucleotide = AAATAAGA; result = 0.306
Oligonucleotide = AGCTACTC; result = -0.128
Oligonucleotide = CGAGAGCG; result = -0.274
Oligonucleotide = AAGCTATT; result = 0.162
Oligonucleotide = ACGTGTTC; result = 0.0228
Oligonucleotide = GAGTCCAC; result = -0.219
Oligonucleotide = ACCGCCTG; result = -0.309
Oligonucleotide = CATAAAAA; result = 0.372
Oligonucleotide = CTCCCTTA; result = -0.0649

Series 3
Target: Interferon regulatory factor 7, full length, phosphomimetic (IRF7, Homo sapiens, UniProt Q92985, residues 1-503, S471D/S472D/S475D/S476D/S477D/S483D/S484D/S487D)
Method: protein-binding microarray
Molecule type: double-stranded DNA, one strand shown
Sample: in vitro
Tested at: 2200 nM top
Setting: 60-bp whole probe
Together with: salmon DNA 0.4 mg/ml
Reference: random background probes
Reading: higher = stronger binding
Quantity: fitted relative affinity
All sequences stand within: GCCTAGCAC … GTCTTGATTCGCTTGACGCTGCTG
Residues (chain): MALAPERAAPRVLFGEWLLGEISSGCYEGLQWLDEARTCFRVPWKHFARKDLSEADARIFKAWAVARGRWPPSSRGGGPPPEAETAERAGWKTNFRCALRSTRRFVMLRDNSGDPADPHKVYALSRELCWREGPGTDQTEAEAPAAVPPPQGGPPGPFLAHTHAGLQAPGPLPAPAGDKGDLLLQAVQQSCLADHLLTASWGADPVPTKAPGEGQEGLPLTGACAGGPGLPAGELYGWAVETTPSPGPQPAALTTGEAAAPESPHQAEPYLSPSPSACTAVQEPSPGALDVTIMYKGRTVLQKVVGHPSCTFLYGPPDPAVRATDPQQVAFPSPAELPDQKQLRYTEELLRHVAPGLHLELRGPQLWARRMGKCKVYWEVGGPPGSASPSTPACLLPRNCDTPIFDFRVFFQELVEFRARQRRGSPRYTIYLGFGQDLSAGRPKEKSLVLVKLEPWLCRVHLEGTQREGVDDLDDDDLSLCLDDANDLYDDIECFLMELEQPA
Oligonucleotide = GACGGTCTCCTTCTCCTGTCGTGCTAG; result = 1.61 z-score
Oligonucleotide = GACGATTTCAGTTTCTAGACGTGCTAG; result = 3.22 z-score
Oligonucleotide = ATAGGTTTCGACTATCGGTTAGTGCTA; result = 3.7 z-score
Oligonucleotide = GCCGGTTTCGACACTGGGGACGTGCTA; result = 3.84 z-score
Oligonucleotide = GACGGTAGCGGGTATCGGGACGTGCTA; result = -0.813 z-score
Oligonucleotide = GACGAACTGAGGCTGGAGACGTGCTAG; result = -0.403 z-score
Oligonucleotide = GAGATTTTCATTATTGCTTCGTGCTAG; result = 1.65 z-score
Oligonucleotide = CTAGATTTCGGGTTTCGATTAGTGCTA; result = 6.3 z-score
Oligonucleotide = TTAGGTTTCGGTATCGCTTAGTGCTAG; result = 7.16 z-score
Oligonucleotide = TCAATTTTCGTTTTGTGACTGTGCTAG; result = 12.8 z-score
Oligonucleotide = TTAGATATCGGGACCGGATTAGTGCTA; result = -0.123 z-score
Oligonucleotide = GACGGACTGCTACCGCTGACGTGCTAG; result = -0.189 z-score
Oligonucleotide = GACGGTTCCCTTTTCCTAACGTGCTAG; result = 2.82 z-score
Oligonucleotide = TTAGGGCTGCTTATCCTTTAGTGCTAG; result = -0.47 z-score
Oligonucleotide = GACGAACTGAGTCTAGAGACGTGCTAG; result = -0.174 z-score
Oligonucleotide = TTAGTTCTCGGTCTCGGTTAGTGCTAG; result = 1.75 z-score
Oligonucleotide = GACGAATTGAGACTGGAGACGTGCTAG; result = -0.169 z-score
Oligonucleotide = TTAGGTCTAGGTTTCGGTTAGTGCTAG; result = 4.98 z-score
Oligonucleotide = TGGGCTCTAGGTTCTCTGAAGGTGCTA; result = -0.679 z-score
Oligonucleotide = GACGATCTCAGTATCGAGACGTGCTAG; result = 0.031 z-score
Oligonucleotide = GACGATTTCAATCTCGAGACGTGCTAG; result = 0.514 z-score
Oligonucleotide = TCATTTCTAAAACTCTTACTGTGCTAG; result = 1.19 z-score
Oligonucleotide = TCAACTCTCTAATTTTGACTGTGCTAG; result = 0.538 z-score
Oligonucleotide = GACGGCCTGGACTTTCGGGACGTGCTA; result = 1.92 z-score
Oligonucleotide = TCATCTTTTATGCTCTTACTGTGCTAG; result = 1.63 z-score

Series 4
Target: RNA binding protein fox-1 homolog 2, RRM domain, GST-SBP tag (RBFOX2, Homo sapiens, UniProt O43251-10, residues 100-194)
Method: RNA Bind-n-Seq
Molecule type: RNA
Sample: in vitro
Tested at: 365 nM
Setting: natural RNA segment, single round, ends assumed
Reference: no-protein control
Reading: higher = stronger binding
Quantity: RBNS enrichment (R)
All sequences stand within: GGGAGUUCUACAGUCCGACGAUC … UGGAAUUCUCGGGUGCCAA
Residues (chain): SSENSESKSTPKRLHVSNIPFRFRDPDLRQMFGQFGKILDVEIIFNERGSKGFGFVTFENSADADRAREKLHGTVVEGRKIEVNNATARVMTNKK
Oligonucleotide = UUUUAACCUUUGCACCUUCUCAGUGCUGUAUGCGGCUGCAGCCGUCUCACCUGUUUCCCCACAAAGGGAAUUUCUCACUCUGGUUGGAAGCACAAACACUGAAAUGUCUA; result = 0.34
Oligonucleotide = UGUACAAGUCAUUCUCUGUUAGGAUUCCUUUCAAUUCUCACUGUCUACAAUGCUCUUCAUGGUCUCAAUGUCUGUGCCAUAAGGGUAGAAAGCUAACAGUCAGUUUUUGC; result = 0.273
Oligonucleotide = GCAGCAGACAGCUCCGCCCAUCCUAGGACUCCCCCAAAGGAGCAACUGUAAUGUGGGACUAACAUGGAUGUGAUGUCUUAUUUAAAAAGAAAUCAGGAUAAUUAGUAACA; result = 0.438
Oligonucleotide = AUUUCUUACUCUUCUGUGUUUUAACAAAAGUUUAUAAAACAAAAUAAAUGGCGCAUAUGUUUUCUAAGUCCUUGGAUAAGUAUCUUUUCUUUCAGGUAUCAGAAAUAAGA; result = 0.484
Oligonucleotide = ACAUGCAGUUUUAAUGGGAAGUGGCUCUGCGCCUAAACGGAGUCCUAACGCUGCAUCAACGGGAGGGAGGGUCCUGAAAGAGACCCAUCUGGGCCUGUCUGAACCCCUCG; result = 0.33
Oligonucleotide = CCCAUUCCGGUACCUAAGUAACAUCUAUGCAAAGAAACACAUUAAAAGCAGCAAUAAAACUGCUCCUACCCACAGCCACGGAUCUUCCAAACCUAGCCCCGCUCUCAGGC; result = 0.52
Oligonucleotide = UUUACCAACCCAAAUAUAUCAAAACGUUUUAUGUGAAUGUGGCAAUAAAGGAGAAGAGAUCAUUUUUAAAAACCGUGUUGCUCAGACAUUGCUCUCACGUGGCUCAGGCU; result = 0.445
Oligonucleotide = ACCAUUCUCUCCUCAUCAGAUUUCUGUUCUUUAUUUGACUUCAUUGACAUAUACCCUGGUGACUAUAACCAGUGAACUGUUCAGAGUCAGUCUUUUCGGCAAGAACUUCA; result = 0.327
Oligonucleotide = UUUCUGAAAGUGAUGGAAAAUGUUGUCUUGUGCAGACAACAUCAUGGCUCUUGGCAGUUUAAAUUUAGUAAUUUUAAUUUAGUGAACAGAAUUGAGAAGAACGUGCCAAA; result = 0.313
Oligonucleotide = UUUACGUGUUUCUAAGUUGUUGGCUACAUCAAAGAGAUCAUCUGUAUUCUGCAUAUGGGCUGGCUUUGGUGAAGCUGAUGACUGGACUUCUAAGAACCGUUUUCCCAAAU; result = 0.19
Oligonucleotide = UGAGGGGCCUCAGGGCUUGUGGGGGGUAGGCUGAGACCCCACCACCAAAGGUUAAGUGAGGUCCCCUUGAUUGAGGACUUCACCCCUUGAUUAAAGCAACUUCUGCUUCA; result = 0.323
Oligonucleotide = CUUUGGAAAAGCAUCAAAGUAGAAAAGAAAUACAGUGCAAUUCUAUUAUGAGAAUGUUUUACAUUUAAACUGGUUUAGCACCUUUUAAGUUUAAAGCCCAUAGCUUCUUA; result = 0.571

For quick reference, copied from above (series 1):
Oligonucleotide = CTAATGTTTCACCGGCACGTTTTGTTTTGTCCCTTC; result = 684 a.u.
Oligonucleotide = GAATGAAGGCATCGTGACGTGATGATATAGGTGTAG; result = 1370 a.u.
Oligonucleotide = GAACGGTTACAACGTCACGTCTTTTTCTGTTTATAG; result = 683 a.u.
Oligonucleotide = GAATCGTTTCGTCTCAACGTGGGAACGATCAAATAG; result = 507 a.u.
Oligonucleotide = CTATGGTTTCAGTCTGTCATGAGGAATAAGGGCTTC; result = 558 a.u.
Oligonucleotide = GAAGTGAGATGGCGTGGCGTGGATCTGCAGGCTTAG; result = 524 a.u.
Oligonucleotide = CTAAGCTGTCACGGTCATCACTGCTCCGACACTTTC; result = 667 a.u.
Oligonucleotide = GAAGGTGCTCCATCCTAGGTGACCGTCGTATGCTAG; result = 486 a.u.
Oligonucleotide = CTAAAAATTTTTCATTGCGTGGGTACATCCGTGTTC; result = 538 a.u.
